{"data": "Measurements from different studies", "note": "Several values in a cell are separate wells, animals, samples, runs or records."}
{"SMILES": "CO/N=C(\\C(=O)N[C@@H]1C(=O)N2C(C(=O)O)=C(CSC(=O)c3ccco3)CS[C@H]12)c1csc(N)n1", "organism": "Staphylococcus aureus", "test system": "CAAS-2019-CAAS-2019-11 clinical drug-resistant isolate, 25% plasma", "endpoint": "MBC", "value": "32 µg/mL"}
{"SMILES": "OB(O)c1csc2ccccc12", "organism": "Staphylococcus aureus", "test system": "USA300 wild type", "conditions": "100 µM", "scale": "reference: untreated", "endpoint": "growth relative to untreated", "value": "58% and 39.4% and 55.6% and 63.3% and 51.3%"}
{"SMILES": "CCOC(=O)c1cnc2ccc(-c3cncc(NS(=O)(=O)c4ccccc4)c3)cn12", "organism": "human coronavirus OC43", "test": "virus-induced cell killing", "test system": "MRC-5", "conditions": "maximum over 10 doses", "endpoint": "maximum inhibition", "value": "0%"}
{"SMILES": "CC[C@H](C)[C@H](NC(=O)[C@H](CCCCN)NC(=O)[C@H](CCCCN)NC(=O)[C@H](Cc1ccccc1)NC(=O)[C@@H](NC(=O)[C@@H](NC(=O)[C@H](CCCNC(=N)N)NC(=O)[C@H](Cc1ccccc1)NC(=O)[C@@H](NC(=O)[C@H](CCCCN)NC(=O)[C@H](CCCCN)NC(=O)[C@@H](N)CCSC)[C@@H](C)CC)C(C)C)[C@@H](C)CC)C(=O)N[C@@H](CC(C)C)C(=O)N[C@@H](CCCCN)C(=O)N[C@@H](CCCNC(=N)N)C(=O)N[C@@H](CC(C)C)C(=O)N[C@H](C(=O)N[C@H](C(=O)O)C(C)C)[C@@H](C)CC", "organism": "Staphylococcus aureus", "test": "broth microdilution", "test system": "ATCC 25923", "conditions": "16 to 18 h", "endpoint": "MIC", "value": "4 µg/mL"}
{"SMILES": "CN[C@H](CC(C)C)C(=O)N[C@H]1C(=O)N[C@@H](CC(N)=O)C(=O)N[C@H]2C(=O)N[C@H]3C(=O)N[C@H](C(=O)N[C@H](C(=O)O)c4cc(O)cc(O)c4-c4cc3ccc4O)[C@H](O)c3ccc(c(Cl)c3)Oc3cc2cc(c3O[C@@H]2O[C@H](CO)[C@@H](O)[C@H](O)[C@H]2O[C@H]2C[C@](C)(N)[C@H](O)[C@H](C)O2)Oc2ccc(cc2Cl)[C@H]1O", "organism": "Staphylococcus aureus", "test system": "MRSA strain 3", "endpoint": "MIC", "value": "2 µg/mL"}
{"SMILES": "CC(C)C[C@H](NC(=O)CNC(=O)CNC(=O)CNC(=O)[C@H](Cc1ccc(O)cc1)NC(=O)[C@H](CC(C)C)NC(=O)[C@@H](NC(=O)CNC(=O)[C@H](Cc1ccc(O)cc1)NC(=O)[C@H](CCCCN)NC(=O)[C@H](CC(N)=O)NC(=O)[C@@H](NC(=O)[C@H](CCCCN)NC(=O)[C@H](Cc1c[nH]c2ccccc12)NC(=O)CN)[C@@H](C)O)[C@@H](C)O)C(=O)N[C@@H](CCCCN)C(=O)N[C@@H](CCCCN)C(=O)N[C@@H](CC(C)C)C(=O)N[C@@H](CC(C)C)C(=O)N[C@@H](CC(C)C)C(=O)N[C@@H](CC(C)C)C(=O)N[C@@H](CC(C)C)C(=O)N[C@@H](CCCCN)C(=O)N[C@@H](CCCCN)C(=O)N[C@@H](CC(C)C)C(=O)NCC(=O)O", "organism": "Staphylococcus aureus", "test system": "ATCC 25923", "conditions": "together with: 1 mM MgCl2", "endpoint": "MIC", "value": "16 µg/mL"}
{"SMILES": "Cc1c2c(nn1C)CSCc1cc(n(C)n1)CSc1cc(c3ccccc3c1)OCCCc1c(C(=O)O)n(C)c3c-2c(Cl)ccc13", "organism": "Staphylococcus aureus", "test": "label-free quantitative proteomics, refers to: SAOUHSC_02979 protein", "test system": "SA113", "conditions": "concentration not given", "scale": "reference: untreated control", "endpoint": "log2 fold change", "value": -3.75}
{"SMILES": "O=C(Nc1ccc(OC(F)(F)F)cc1)c1sccc1NCc1ccnc2ccccc12", "organism": "human coronavirus OC43", "test": "virus-induced cell killing", "test system": "MRC-5", "conditions": "screen", "endpoint": "maximum inhibition", "value": "3.21%"}
{"SMILES": "C=CC[C@@H]1c2ccc(OC)c(OC)c2CN2CCc3cc4c(cc3[C@H]12)OCO4", "organism": "Staphylococcus aureus", "test system": "P2rx7 A312V/A312V mice, skin wound infection", "conditions": "dose not given, day 5", "scale": "reference: day 0", "endpoint": "relative wound size", "value": "0.98 and 0.37 and 0.65 and 0.85 and 0.6"}
{"SMILES": "CN[C@H](CC(C)C)C(=O)N[C@H]1C(=O)N[C@@H](CC(N)=O)C(=O)N[C@H]2C(=O)N[C@H]3C(=O)N[C@H](C(=O)N[C@H](C(=O)O)c4cc(O)cc(O)c4-c4cc3ccc4O)[C@H](O)c3ccc(c(Cl)c3)Oc3cc2cc(c3O[C@@H]2O[C@H](CO)[C@@H](O)[C@H](O)[C@H]2O[C@H]2C[C@](C)(N)[C@H](O)[C@H](C)O2)Oc2ccc(cc2Cl)[C@H]1O", "organism": "Staphylococcus aureus", "test system": "CAAS-2019-CAAS-2019-02 clinical drug-resistant isolate, PBS", "endpoint": "MBC", "value": "2 µg/mL"}
{"SMILES": "CC[C@H](C)[C@H](NC(=O)[C@H](C)NC(=O)[C@H](CCCCN)NC(=O)[C@H](CC(C)C)NC(=O)[C@H](C)NC(=O)[C@@H](NC(=O)[C@H](Cc1c[nH]cn1)NC(=O)[C@H](CC(C)C)NC(=O)[C@@H](NC(=O)[C@@H](NC(=O)[C@H](CCCCN)NC(=O)[C@H](C)NC(=O)[C@H](C)NC(=O)[C@H](CO)NC(=O)[C@H](CCCCN)NC(=O)[C@H](Cc1ccccc1)NC(=O)[C@@H](NC(=O)[C@H](CCCCN)NC(=O)[C@H](CC(C)C)NC(=O)[C@H](Cc1ccccc1)NC(=O)[C@H](CO)NC(=O)[C@H](CCCCN)NC(=O)[C@H](Cc1c[nH]c2ccccc12)NC(=O)[C@H](CCCCN)NC(C)=O)[C@@H](C)O)[C@@H](C)O)C(C)C)[C@@H](C)O)C(=O)N[C@@H](CO)C(=O)N[C@@H](CO)C(N)=O", "organism": "Staphylococcus aureus", "test system": "ATCC 29213", "endpoint": "MBC range", "value": "8 µg/mL"}
{"note": "Excerpt of the above:"}
{"SMILES": "CC[C@H](C)[C@H](NC(=O)[C@H](CCCCN)NC(=O)[C@H](CCCCN)NC(=O)[C@H](Cc1ccccc1)NC(=O)[C@@H](NC(=O)[C@@H](NC(=O)[C@H](CCCNC(=N)N)NC(=O)[C@H](Cc1ccccc1)NC(=O)[C@@H](NC(=O)[C@H](CCCCN)NC(=O)[C@H](CCCCN)NC(=O)[C@@H](N)CCSC)[C@@H](C)CC)C(C)C)[C@@H](C)CC)C(=O)N[C@@H](CC(C)C)C(=O)N[C@@H](CCCCN)C(=O)N[C@@H](CCCNC(=N)N)C(=O)N[C@@H](CC(C)C)C(=O)N[C@H](C(=O)N[C@H](C(=O)O)C(C)C)[C@@H](C)CC", "organism": "Staphylococcus aureus", "test": "broth microdilution", "test system": "ATCC 25923", "conditions": "16 to 18 h", "endpoint": "MIC", "value": "4 µg/mL"}
